# Measured values pooled from the literature.
# Parts stem from different laboratories: compare values within a part only.
# Chain of UniProt P08581 (whole entry, looked up): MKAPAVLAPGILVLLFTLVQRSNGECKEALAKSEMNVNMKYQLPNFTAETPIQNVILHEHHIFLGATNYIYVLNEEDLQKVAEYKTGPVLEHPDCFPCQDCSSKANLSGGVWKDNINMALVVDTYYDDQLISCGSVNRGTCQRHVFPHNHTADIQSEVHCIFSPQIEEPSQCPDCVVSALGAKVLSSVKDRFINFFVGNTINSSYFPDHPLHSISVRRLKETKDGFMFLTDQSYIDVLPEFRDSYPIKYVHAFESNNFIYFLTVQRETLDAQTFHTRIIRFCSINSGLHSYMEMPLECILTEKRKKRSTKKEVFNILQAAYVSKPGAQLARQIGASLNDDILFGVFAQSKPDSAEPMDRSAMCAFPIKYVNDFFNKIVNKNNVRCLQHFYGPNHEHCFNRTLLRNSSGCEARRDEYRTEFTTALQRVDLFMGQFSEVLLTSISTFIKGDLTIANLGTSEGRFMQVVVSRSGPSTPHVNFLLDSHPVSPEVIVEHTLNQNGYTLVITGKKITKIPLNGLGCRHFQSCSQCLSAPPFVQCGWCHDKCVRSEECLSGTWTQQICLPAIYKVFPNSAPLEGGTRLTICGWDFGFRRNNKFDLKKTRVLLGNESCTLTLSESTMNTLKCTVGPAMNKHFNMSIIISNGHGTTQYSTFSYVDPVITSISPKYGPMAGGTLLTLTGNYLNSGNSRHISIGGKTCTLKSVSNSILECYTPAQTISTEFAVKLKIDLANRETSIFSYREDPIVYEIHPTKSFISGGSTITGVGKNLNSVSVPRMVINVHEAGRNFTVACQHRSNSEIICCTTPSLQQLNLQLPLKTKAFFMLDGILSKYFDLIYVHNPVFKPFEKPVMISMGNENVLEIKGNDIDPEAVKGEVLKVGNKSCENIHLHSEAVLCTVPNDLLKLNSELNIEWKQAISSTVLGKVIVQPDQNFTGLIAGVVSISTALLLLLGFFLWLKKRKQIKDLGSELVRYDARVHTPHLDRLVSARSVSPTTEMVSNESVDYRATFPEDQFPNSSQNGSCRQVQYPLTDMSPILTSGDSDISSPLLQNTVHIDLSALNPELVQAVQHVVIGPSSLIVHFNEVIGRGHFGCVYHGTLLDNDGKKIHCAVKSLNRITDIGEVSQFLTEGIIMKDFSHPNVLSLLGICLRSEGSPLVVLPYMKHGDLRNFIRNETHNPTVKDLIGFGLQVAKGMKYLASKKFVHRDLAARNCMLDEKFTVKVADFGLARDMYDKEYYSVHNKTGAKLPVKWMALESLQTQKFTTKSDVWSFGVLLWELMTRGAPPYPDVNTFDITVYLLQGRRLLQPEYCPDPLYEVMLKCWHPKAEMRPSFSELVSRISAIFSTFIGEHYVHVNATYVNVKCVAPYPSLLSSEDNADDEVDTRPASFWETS
# Chain of UniProt Q13464 (whole entry, looked up): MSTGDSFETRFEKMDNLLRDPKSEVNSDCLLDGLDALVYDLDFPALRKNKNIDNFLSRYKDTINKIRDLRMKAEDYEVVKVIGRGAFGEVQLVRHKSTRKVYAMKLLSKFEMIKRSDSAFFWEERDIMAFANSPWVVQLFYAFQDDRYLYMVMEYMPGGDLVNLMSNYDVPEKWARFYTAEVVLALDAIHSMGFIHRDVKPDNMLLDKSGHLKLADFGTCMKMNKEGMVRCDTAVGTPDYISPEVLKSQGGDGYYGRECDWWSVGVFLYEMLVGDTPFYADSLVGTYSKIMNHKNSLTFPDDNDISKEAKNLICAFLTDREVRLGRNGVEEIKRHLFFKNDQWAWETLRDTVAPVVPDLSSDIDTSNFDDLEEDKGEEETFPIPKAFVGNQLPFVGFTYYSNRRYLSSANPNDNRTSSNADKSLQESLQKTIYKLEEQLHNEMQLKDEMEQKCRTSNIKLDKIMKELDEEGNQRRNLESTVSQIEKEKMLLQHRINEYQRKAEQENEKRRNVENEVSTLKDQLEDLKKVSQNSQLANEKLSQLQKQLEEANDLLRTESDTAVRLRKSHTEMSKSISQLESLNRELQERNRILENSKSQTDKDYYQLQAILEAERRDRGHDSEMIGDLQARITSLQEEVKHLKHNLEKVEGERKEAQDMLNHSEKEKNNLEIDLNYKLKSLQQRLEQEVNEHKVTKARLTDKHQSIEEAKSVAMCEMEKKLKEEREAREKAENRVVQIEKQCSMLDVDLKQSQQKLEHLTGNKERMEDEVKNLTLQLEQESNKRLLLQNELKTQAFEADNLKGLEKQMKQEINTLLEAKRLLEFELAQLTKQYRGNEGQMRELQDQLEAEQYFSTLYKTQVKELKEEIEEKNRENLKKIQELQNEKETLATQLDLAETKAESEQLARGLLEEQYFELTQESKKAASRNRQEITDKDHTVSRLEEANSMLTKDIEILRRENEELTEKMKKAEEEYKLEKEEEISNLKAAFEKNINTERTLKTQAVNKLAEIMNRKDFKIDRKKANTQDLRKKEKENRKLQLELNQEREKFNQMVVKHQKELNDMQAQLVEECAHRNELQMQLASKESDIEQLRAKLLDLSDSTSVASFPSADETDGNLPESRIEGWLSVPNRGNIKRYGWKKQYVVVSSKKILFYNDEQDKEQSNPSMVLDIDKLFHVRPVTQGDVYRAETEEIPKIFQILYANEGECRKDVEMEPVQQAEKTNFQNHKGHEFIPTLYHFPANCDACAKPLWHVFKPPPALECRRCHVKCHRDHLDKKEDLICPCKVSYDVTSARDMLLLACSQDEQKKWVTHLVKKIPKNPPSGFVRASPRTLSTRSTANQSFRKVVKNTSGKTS
# Chain of UniProt P35968 (whole entry, looked up): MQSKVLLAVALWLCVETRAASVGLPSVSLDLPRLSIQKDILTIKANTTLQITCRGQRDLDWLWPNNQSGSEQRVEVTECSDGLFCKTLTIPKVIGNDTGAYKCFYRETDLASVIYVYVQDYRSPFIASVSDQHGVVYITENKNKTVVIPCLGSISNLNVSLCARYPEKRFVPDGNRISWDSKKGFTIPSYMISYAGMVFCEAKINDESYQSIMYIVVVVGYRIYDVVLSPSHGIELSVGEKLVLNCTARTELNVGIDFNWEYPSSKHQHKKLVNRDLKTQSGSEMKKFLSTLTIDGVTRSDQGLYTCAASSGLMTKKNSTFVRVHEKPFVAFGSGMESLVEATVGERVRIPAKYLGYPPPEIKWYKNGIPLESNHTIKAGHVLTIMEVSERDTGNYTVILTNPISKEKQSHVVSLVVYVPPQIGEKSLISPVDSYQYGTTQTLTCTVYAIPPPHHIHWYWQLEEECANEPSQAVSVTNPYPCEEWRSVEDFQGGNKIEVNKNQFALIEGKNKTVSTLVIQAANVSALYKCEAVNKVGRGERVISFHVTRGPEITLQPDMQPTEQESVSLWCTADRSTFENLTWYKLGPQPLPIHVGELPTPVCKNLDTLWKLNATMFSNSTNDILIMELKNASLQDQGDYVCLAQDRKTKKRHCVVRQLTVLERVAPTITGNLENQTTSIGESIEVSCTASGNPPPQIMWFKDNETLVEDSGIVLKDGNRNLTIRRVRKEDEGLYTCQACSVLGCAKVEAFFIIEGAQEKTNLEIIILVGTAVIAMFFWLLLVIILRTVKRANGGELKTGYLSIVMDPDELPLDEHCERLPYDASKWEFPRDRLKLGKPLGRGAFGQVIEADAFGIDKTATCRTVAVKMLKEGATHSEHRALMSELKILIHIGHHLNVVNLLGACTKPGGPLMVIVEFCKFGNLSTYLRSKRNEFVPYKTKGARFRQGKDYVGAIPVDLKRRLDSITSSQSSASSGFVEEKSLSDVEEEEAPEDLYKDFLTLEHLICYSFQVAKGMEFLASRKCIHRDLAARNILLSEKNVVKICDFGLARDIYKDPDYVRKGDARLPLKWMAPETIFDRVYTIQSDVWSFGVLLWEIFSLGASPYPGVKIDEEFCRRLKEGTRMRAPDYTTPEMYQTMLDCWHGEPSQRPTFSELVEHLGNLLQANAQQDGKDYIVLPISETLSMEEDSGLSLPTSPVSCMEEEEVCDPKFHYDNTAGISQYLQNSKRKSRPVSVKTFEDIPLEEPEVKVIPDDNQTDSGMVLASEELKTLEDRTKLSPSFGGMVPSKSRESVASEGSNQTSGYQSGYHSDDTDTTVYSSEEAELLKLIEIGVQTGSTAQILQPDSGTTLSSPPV
# Chain of UniProt P50750 (whole entry, looked up): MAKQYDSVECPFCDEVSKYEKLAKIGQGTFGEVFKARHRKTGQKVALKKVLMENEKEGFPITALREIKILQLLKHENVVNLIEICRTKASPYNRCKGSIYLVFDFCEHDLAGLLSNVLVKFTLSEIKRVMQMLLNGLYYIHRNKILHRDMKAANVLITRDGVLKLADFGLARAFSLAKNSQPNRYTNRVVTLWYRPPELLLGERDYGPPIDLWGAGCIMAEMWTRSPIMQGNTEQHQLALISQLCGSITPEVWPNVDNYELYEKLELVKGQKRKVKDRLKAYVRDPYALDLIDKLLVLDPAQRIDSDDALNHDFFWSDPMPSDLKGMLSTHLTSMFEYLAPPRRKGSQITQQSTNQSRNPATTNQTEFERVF

# Study 1 — observed: transporter uptake; mode: inhibitor; technique: radiometric; notes: cell membranes
# Target: Synaptic vesicular amine transporter (SLC18A2, Homo sapiens, UniProt Q05940)
# Chain of UniProt Q05940 (whole entry, looked up): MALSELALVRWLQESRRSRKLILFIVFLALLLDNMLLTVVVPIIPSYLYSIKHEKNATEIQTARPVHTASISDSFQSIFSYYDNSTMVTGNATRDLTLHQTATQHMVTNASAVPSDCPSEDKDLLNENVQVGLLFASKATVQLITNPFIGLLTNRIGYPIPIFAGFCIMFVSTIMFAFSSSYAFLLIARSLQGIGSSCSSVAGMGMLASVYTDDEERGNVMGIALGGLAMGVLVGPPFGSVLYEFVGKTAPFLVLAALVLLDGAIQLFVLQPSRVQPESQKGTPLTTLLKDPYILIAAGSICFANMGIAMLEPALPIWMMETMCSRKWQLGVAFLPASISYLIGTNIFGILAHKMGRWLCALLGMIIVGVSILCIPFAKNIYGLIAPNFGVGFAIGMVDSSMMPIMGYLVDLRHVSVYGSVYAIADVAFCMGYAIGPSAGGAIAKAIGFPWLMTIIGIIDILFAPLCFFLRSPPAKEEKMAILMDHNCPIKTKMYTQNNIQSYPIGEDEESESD
SMILES,IC50 [nM]
COc1cc2nc(N3CCN(C(=O)C4COc5ccccc5O4)CC3)nc(N)c2cc1OC (stereo not drawn),8
O=c1[nH]c2ccccc2n1CCN1CCN(c2cccc(C(F)(F)F)c2)CC1,126
CN(C)C(=O)N[C@H]1CC[C@H](CCN2CCN(c3cccc(Cl)c3Cl)CC2)CC1,845
COc1ccc(C[C@@H](C)NC[C@H](O)c2ccc(O)c(NC=O)c2)cc1 (racemic),244
CN1CCN(c2ccc(C(=O)Nc3n[nH]c4ccc(Cc5cc(F)cc(F)c5)cc34)c(NC3CCOCC3)c2)CC1,670
COc1cc2nc(N3CCN(C(=O)C4CCCO4)CC3)nc(N)c2cc1OC (stereo not drawn),313
CC(C)(Cc1ccccc1)NCC(O)c1ccc(O)c(NS(C)(=O)=O)c1 (stereo not drawn),600
O=C(CCCN1CCC(O)(c2ccc(Cl)cc2)CC1)c1ccc(F)cc1,186

# Study 2 — host: mouse; sample: microsomes or S9; concentration: 2 µM; time: 0.5 h
Structure (SMILES),remaining compound [%]
O=c1c2c3nc4ccccc4nc3n(Cc3ccc4c(c3)OCO4)c2ncn1Cc1ccco1,1.75
COc1cc(-c2cc(NC(=O)C3CCCN(c4ncnc5c4nc4n5CCCCC4)C3)on2)cc(OC)c1OC (stereo not drawn),2.56
CC(C)CC1(C(=O)N2CCC(N(C)CC(=O)O)CC2)CCCC1,82.9
Cn1nnnc1NC(=O)c1ccc(C(F)(F)F)nc1N1CCC(C#N)(c2ccccc2)CC1,81.4
NC(=O)C1CCCC1NC(=O)c1cc2ccccn2c1 (stereo not drawn),97.8
CO[C@H]1C[C@H](C(=O)Nc2ccncc2C(C)=O)N(S(C)(=O)=O)C1,82.5

# Study 3 — observed: enzyme activity; mode: inhibitor; concentration: 0.5 µM; baseline: control
# Structure (SMILES): O=C1NC(=O)c2c1c1c3ccccc3[nH]c1c1[nH]c3cc(Br)ccc3c21
target,remaining activity [%]
"KDR (Homo sapiens, UniProt P35968)",67.9
"CDC42BPB (Homo sapiens, UniProt Q9Y5S2)",84.1
"PLK3 (Homo sapiens, UniProt Q9H4B4)",93.3
"MAPK14 (Homo sapiens, UniProt Q16539)",90.6
"CLK3 (Homo sapiens, UniProt P49761)",93.4
"MET (Homo sapiens, UniProt P08581)",76.6
"MINK1 (Homo sapiens, UniProt Q8N4C8)",52.2
"Cyclin-dependent kinase 1, with cyclin A (CDK1, Homo sapiens, UniProt P06493)",91.9
"PNCK (Homo sapiens, UniProt Q6P2M8)",99.4
"NEK3 (Homo sapiens, UniProt P51956)",88.3
"CAMK4 (Homo sapiens, UniProt Q16566)",96.2
"Cyclin-dependent kinase 9, with cyclin K (CDK9, Homo sapiens, UniProt P50750)",82.7
"ROCK1 (Homo sapiens, UniProt Q13464)",93.9

# Study 4 — observed: cell-free assay; technique: competition with immobilised ligand; concentration: 1 µM
# SMILES: Cn1nc(C(F)(F)F)cc1-c1cnc(N2CCc3cc(S(=O)(=O)Nc4c(F)cc(Cl)cc4F)cc(N4CCCC4=O)c32)nc1
target,remaining binding [%]
"MAP4K5 (Homo sapiens, UniProt Q9Y4K4)",88
"Tyrosine-protein kinase ABL1, phosphorylated (ABL1, Homo sapiens, UniProt P00519, Q252H)",99
"PIKFYVE (Homo sapiens, UniProt Q9Y2I7)",88
"PRKCD (Homo sapiens, UniProt Q05655)",95
"NEK10 (Homo sapiens, UniProt Q6ZWH5)",80
"ROCK1 (Homo sapiens, UniProt Q13464)",89
"PIK3C2B (Homo sapiens, UniProt O00750)",99
"NTRK2 (Homo sapiens, UniProt Q16620)",75
"MAP3K11 (Homo sapiens, UniProt Q16584)",100
"MET (Homo sapiens, UniProt P08581)",100
"BRSK1 (Homo sapiens, UniProt Q8TDC3)",100
"Ribosomal protein S6 kinase alpha-3, N-terminal kinase domain (RPS6KA3, Homo sapiens, UniProt P51812)",99

# Repeated from above (study 2):
Structure (SMILES),remaining compound [%]
COc1cc(-c2cc(NC(=O)C3CCCN(c4ncnc5c4nc4n5CCCCC4)C3)on2)cc(OC)c1OC (stereo not drawn),2.56
CC(C)CC1(C(=O)N2CCC(N(C)CC(=O)O)CC2)CCCC1,82.9
Cn1nnnc1NC(=O)c1ccc(C(F)(F)F)nc1N1CCC(C#N)(c2ccccc2)CC1,81.4
NC(=O)C1CCCC1NC(=O)c1cc2ccccn2c1 (stereo not drawn),97.8
